Assay results of several laboratories.
Parts stem from different laboratories: compare values within a part only.
UniProt Q9C0B0, sequence (30-357, looked up): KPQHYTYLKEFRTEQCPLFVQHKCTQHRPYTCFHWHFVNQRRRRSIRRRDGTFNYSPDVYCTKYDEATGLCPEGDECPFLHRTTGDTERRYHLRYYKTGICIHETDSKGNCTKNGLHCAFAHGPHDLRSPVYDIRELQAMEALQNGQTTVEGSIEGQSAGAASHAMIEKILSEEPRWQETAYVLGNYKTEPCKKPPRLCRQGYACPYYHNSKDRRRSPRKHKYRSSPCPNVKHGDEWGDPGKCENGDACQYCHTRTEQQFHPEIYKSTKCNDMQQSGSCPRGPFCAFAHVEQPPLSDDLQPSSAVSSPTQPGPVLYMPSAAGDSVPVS

Study 1 — technique: protein binding microarray; form: double-stranded DNA, one strand shown; sample: in vitro; tested at: not given; relative to: not given; direction: higher = stronger binding; measurement: E-score
Target: Histone acetyltransferase KAT6A, both winged helices, GST fusion (KAT6A, Homo sapiens, UniProt Q92794, residues 1-181)
Setting: 8-mer, flanks averaged, mean of 2 arrays, mostly near background
Construct (chain): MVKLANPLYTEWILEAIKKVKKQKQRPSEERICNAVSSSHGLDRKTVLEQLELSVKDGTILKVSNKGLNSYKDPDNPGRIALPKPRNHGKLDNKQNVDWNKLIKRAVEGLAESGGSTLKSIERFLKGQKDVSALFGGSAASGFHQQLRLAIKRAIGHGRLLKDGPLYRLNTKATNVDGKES
AATCTGGA: 0.0454
TGCGCCAA: 0.148
GAGACAGA: -0.116
TGCTCACA: -0.146
CGTACACC: 0.123
ATTGTAGA: -0.0884
ATTGCTAG: -0.111
AGTGCTTA: -0.137
CCATGTTC: -0.0241
AATGGACC: -0.0631
CAGTAATG: -0.101
CATTTCCC: 0.0761
AGATCCAG: -0.12
GGCAGATA: 0.00553
CCCTATAC: -0.109
CGGGGCGA: 0.125
ATATCGAT: -0.0575
AATTTGAG: -0.195
GTAGACAA: -0.1
CGAGTTGA: -0.0568
GTTCAACA: -0.0517
TATATCGA: 0.107
ACCATTCA: -0.124
GAGCTGCC: 0.025
ACGGGCCG: 0.274

Study 2 — technique: aptamer microarray, sandwich; form: DNA with 2'F-ANA; sample: in vitro; tested at: 200 nM; added: Cy3 exosite-II aptamer, 400 nM; direction: higher = stronger binding; measurement: mean fluorescence intensity; sequence: GGTTGGTGTGGTTGG
Target: Prothrombin, mature alpha-thrombin (F2, Homo sapiens, UniProt P00734)
Setting: whole 15-mer aptamer, many near background
2'F-ANA at 1 3 8 9 11: 333 a.u.
2'F-ANA at 5 7 8 11 12 14 15: 48.3 a.u.
2'F-ANA at 1 6 7 11 12 14: 65.4 a.u.
2'F-ANA at 6 8 9 10 12 14: 115 a.u.
2'F-ANA at 3 4 5 6 8 10 11 12 13 14 15: 68.1 a.u.
2'F-ANA at 1 3 5 6 8 10 11 12 15: 71.9 a.u.
2'F-ANA at 1 5 8 9 10 12 15: 51.7 a.u.
2'F-ANA at 3 4 12 13 15: 771 a.u.
2'F-ANA at 4 6 13 14 15: 75.3 a.u.
2'F-ANA at 1 2 4 5 6 7 8 9 12 13 14: 48 a.u.
2'F-ANA at 3 4 6 7 10 11 12: 298 a.u.
2'F-ANA at 4 6 9 11 13 14: 73.3 a.u.
2'F-ANA at 1 3 4 5 7 8 10 11 14 15: 44.3 a.u.
2'F-ANA at 1 5 6 7 9 10 14: 47.3 a.u.
2'F-ANA at 1 2 4 5 7 8 9 11: 56.5 a.u.
2'F-ANA at 1 3 5 9 10 12 14: 49.8 a.u.
2'F-ANA at 1 2 4 5 6 8 9 10 11 12 14: 52.9 a.u.
2'F-ANA at 1 4 5 6 7 8 9 11 12 15: 89.6 a.u.
2'F-ANA at 1 4 6 9 10 14: 166 a.u.
2'F-ANA at 1 2 3 8 10 11 12 15: 85.9 a.u.

Study 3 — technique: RNA Bind-n-Seq; form: RNA; sample: in vitro; tested at: 200 nM; setting: whole 134-nt RNA, ends assumed; added: 150 mM LiCl; relative to: input library; direction: higher = stronger binding; measurement: log2 enrichment; library: 7-deaza-guanosine replaces G
Target: Fragile X messenger ribonucleoprotein 1, C-terminal low-complexity region (Fmr1, Mus musculus, UniProt P35922)
Shared flanks, not repeated: GGGAGUUCUACAGUCCGACGAUC … UGGAAUUCUCGGGUGUCAAGG
UGGAGCUGAAGAGCCAAGAGGCUCCGAGUCUGCAGCAGCAGCCAGACCAGUACCUGGAGCCCCAGUCCCACAAGGAGCUUGGAUGUGCGG: -1.64
CCUGUGCUACACAUCGUAUGUACCGAAUCGGGGAAAAAGGGGUUUUUUUGGGGAAAGGGGAAAGUAUUAUGUUACGCCGUUCGGAUCUGC: -1.54
UAACUUUAGAGGAGGAUCUGAUGGAUAUGGCAGUGGACGUGGAUUUGGGGGUGGCUAUAAUGGGUAUGGAGGAGGACCUGGAGGUGGCAA: 0.435
UUUCAAAGCCAAAGGGCCUUGUGACGCCCCUCUUGCCCACCUCCCUCCACACCGUGUCCUCCCCUAUAUGACAAUCAAUGUGACCUCUCU: 1.76
UCCUGUGCUACACAUCGUAUGUACCGAAUCGGGGUUUUUGGGGAAAGGGGUUUUUGGGGAAAGUAUUAUGUUACGCCGUUCGGAUCUGCA: -0.713
GUCCUGUGCUACACAUCGUAUGUACCGAAUCGGGGUUUUUGGGUUUUUGGGUUUUUGGAAAGUAUUAUGUUACGCCGUUCGGAUCUGCAC: -0.87
ACCAUGCAGGUGGGCAUCUUUGGGAAGUGGGGCAUGGGGGGGAUAGGGAGGGGGGUAACACUUUGGGAACAGGUGGUCCCAGGUCGUUUC: 0.926
CAAGUCCUGUGCUACACAUCGUAUGUACCGAAUCGGGUUUGGGGUUUGGGUUUGGAAAGUAUUAUGUUACGCCGUUCGGAUCUGCACUUC: -1.38
AAGUCCUGUGCUACACAUCGUAUGUACCGAAUCGGAAAGGUUUUUGGAAAAAAAGGAAAGUAUUAUGUUACGCCGUUCGGAUCUGCACUU: -2.2
CAAGUCCUGUGCUACACAUCGUAUGUACCGAAUCGGGAAAGGGUUUGGGUUUGGGAAAGUAUUAUGUUACGCCGUUCGGAUCUGCACUUC: -1.33
CACAGACAACACGAACCCACACAGACACAGAGGGAAGGGGUUGGGAUGGGGACAGGGUGCACAGCAGGGCGGGGUAGGACCCCAGCCCCU: 0.199

Study 4 — technique: universal PBM; form: double-stranded DNA, one strand shown; sample: in vitro; tested at: not given; direction: higher = stronger binding; measurement: E-score
Target: Sal-like protein 4, full length isoform B (SALL4, Homo sapiens, UniProt Q9UJQ4-2, residues 1-616)
Setting: 8-mer, flanks averaged, mean of replicates
Construct (chain): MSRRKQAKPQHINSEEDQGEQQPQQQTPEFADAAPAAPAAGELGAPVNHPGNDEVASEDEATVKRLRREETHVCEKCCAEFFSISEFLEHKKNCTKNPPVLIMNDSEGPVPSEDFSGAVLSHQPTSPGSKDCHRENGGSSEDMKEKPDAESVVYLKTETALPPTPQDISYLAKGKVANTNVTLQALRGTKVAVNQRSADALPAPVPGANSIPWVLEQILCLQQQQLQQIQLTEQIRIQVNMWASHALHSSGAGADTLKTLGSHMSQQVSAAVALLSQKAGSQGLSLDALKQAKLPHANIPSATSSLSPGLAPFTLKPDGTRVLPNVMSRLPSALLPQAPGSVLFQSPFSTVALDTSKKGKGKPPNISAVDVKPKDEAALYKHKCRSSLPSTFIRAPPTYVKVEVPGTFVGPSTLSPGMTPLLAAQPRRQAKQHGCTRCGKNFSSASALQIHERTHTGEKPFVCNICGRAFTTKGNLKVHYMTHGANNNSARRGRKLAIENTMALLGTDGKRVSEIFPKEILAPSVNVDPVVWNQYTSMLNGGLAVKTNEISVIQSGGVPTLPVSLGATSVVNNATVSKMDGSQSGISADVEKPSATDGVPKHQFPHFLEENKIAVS
GGGTAACA: -0.0419
CATGGTGA: 0.0279
CGTATTAA: 0.229
CTCTCTCA: 0.0395
AAGCGTGC: -0.0286
AGATTATG: 0.273
ACTGTTGG: -0.0152
AAGTGTCG: 0.0623
ATCAGGTA: 0.159
ACTTCTTA: 0.167
CCGCCGGA: -0.256
CAACATTC: -0.0896
CGTGTATC: 0.0318
CACAAAGA: 0.0643
ACCAGATC: -0.279
GCTCCCTA: -0.0909
AGGCACTG: -0.138
GACTCCCA: -0.172

Study 5 — technique: protein-binding microarray; form: double-stranded DNA, one strand shown; sample: in vitro; tested at: 940 nM top; setting: 60-bp whole probe; added: salmon DNA 0.4 mg/ml; relative to: random background probes; direction: higher = stronger binding; measurement: fitted relative affinity; shared flanks, not repeated: GCCTAGCAC … GTCTTGATTCGCTTGACGCTGCTG
Target: Interferon regulatory factor 5, full length, phosphomimetic (IRF5, Homo sapiens, UniProt Q13568-2, residues 1-514, S451D/S453D/S456D/S462D)
TCAGCTTTGTGCCTAGCACTGTGCTAG: -0.249 z-score
TCCCTATTATATATATCATAGTGCTAG: 1.38 z-score
GACGAACTGAGTCTCGAAACGTGCTAG: 1.43 z-score
TTAGACATCGGGTATCGATTAGTGCTA: 2.88 z-score
GACCATTTCAGTTCCGAGACGTGCTAG: 1.21 z-score
GACGATATCGGTTTTCGAGACGTGCTA: 0.956 z-score
GACGGTTCCGGTTACGGGACGTGCTAG: 2.93 z-score
GACGGCATCGGGTATCGGGACGTGCTA: 0.403 z-score
GACGATCTCACACTGGAGACGTGCTAG: -0.0439 z-score
GACGATATCAGGCTGGAGACGTGCTAG: -0.682 z-score
TTAGGTTCCGGGTTCGGTTAGTGCTAG: 1.71 z-score
TCATGTTTGAGAAATCAGACTGTGCTA: -0.178 z-score
TTAGATAGCGGGTATCGATTAGTGCTA: 2.66 z-score
GACGGTATCGGGTTTCGGAACGTGCTA: 5.92 z-score
GACGATCTAAGTATCGAGACGTGCTAG: 1.26 z-score
GAACTTTGGCCTCTAGGTTTGTGCTAG: -0.527 z-score
ACTCGTTTACATTTTCCAAAGTGCTAG: 1.04 z-score
TCACCACTTTCTTTTGCACTGTGCTAG: 2.06 z-score
TTAGGTTTCCTCCTCCTTTAGTGCTAG: 1.45 z-score
TTAGGTTTCGACTTTCCGTTAGTGCTA: 8.94 z-score
GTATGACTCTGCCTCTAACTGTGCTAG: 0.332 z-score
TTAGATATCGGGGCTGGATTAGTGCTA: 0.241 z-score
GACGAACTGAGTCTCGACACGTGCTAG: 0.993 z-score
TCTTTTTCCTAATTGAACCCGTGCTAG: 1.23 z-score
TCACTCTCTCTATTCTGTGGGTGCTAG: 2.76 z-score

Other studies, line by line
GGGAGUUCUACAGUCCGACGAUCUGAGGGAGAGAUUUCUGUGCUUUCUCAUAUUUAAUUUGCUGUUUUUAAGAUAUUCCAACCCCGAGUUUUUGAUGGAACUGAUAUAUUGACAGUUCUCACCGAAGUCCUUUUAUAAAGAAUCAACAGAGGAUUGAGCAUCA  bound/input enrichment (RING finger protein unkempt homolog, zinc fingers 1-6, SBP tag (UNK, Homo sapiens, UniProt Q9C0B0, residues 30-357); RNA Bind-n-Seq; RNA, in vitro; 100 nM, RNA with constant flanks, ends assumed; relative to: input RNA pool, higher = stronger binding): 0.688 ratio

Excerpt of the above (study 2):
2'F-ANA at 1 6 7 11 12 14: 65.4 a.u.
2'F-ANA at 4 6 9 11 13 14: 73.3 a.u.
2'F-ANA at 3 4 12 13 15: 771 a.u.
2'F-ANA at 6 8 9 10 12 14: 115 a.u.
2'F-ANA at 1 2 4 5 6 7 8 9 12 13 14: 48 a.u.
2'F-ANA at 1 2 4 5 7 8 9 11: 56.5 a.u.
2'F-ANA at 1 3 4 5 7 8 10 11 14 15: 44.3 a.u.
2'F-ANA at 3 4 5 6 8 10 11 12 13 14 15: 68.1 a.u.
2'F-ANA at 1 5 8 9 10 12 15: 51.7 a.u.
2'F-ANA at 1 4 6 9 10 14: 166 a.u.
2'F-ANA at 4 6 13 14 15: 75.3 a.u.
2'F-ANA at 1 2 3 8 10 11 12 15: 85.9 a.u.
2'F-ANA at 1 4 5 6 7 8 9 11 12 15: 89.6 a.u.
2'F-ANA at 1 5 6 7 9 10 14: 47.3 a.u.
2'F-ANA at 1 3 5 9 10 12 14: 49.8 a.u.
2'F-ANA at 1 2 4 5 6 8 9 10 11 12 14: 52.9 a.u.
2'F-ANA at 5 7 8 11 12 14 15: 48.3 a.u.
